Assay results from different studies.
Lines come from different studies, so protocols differ.

With `O=C(Nc1ccc(C(F)F)cc1)[C@H](CC1CCCCC1)Nc1nn2c(=O)ccnc2s1` the fraction unbound was 0.007 (rapid equilibrium dialysis; human plasma; 1 µM, 4 h).
`COC1C=COC2(C)Oc3c(C)c(O)c4c(c3C2=O)C2=NC3(CCN(CC(C)C)CC3)NC2=C(NC(=O)C(C)=CC=CC(C)C(O)C(C)C(O)C(C)C(OC(=O)c2cncnc2)C1C)C4=O` (stereo not shown) has a fraction unbound of 0.0941 (human plasma).
`CN1CC[C@@H](COc2cnc(C#N)cc2-c2ccn3nc(NC(=O)C4CC4)cc3c2)C1` has a fraction unbound of 0.48 (mouse plasma diluted 25%; 1 µM, 6 h, pH 7.4).
`COc1ccccc1NC(=O)OC1C(C)C(OC)C=COC2(C)Oc3c(C)c(O)c4c(c3C2=O)C2=NC3(CCN(CC(C)C)CC3)NC2=C(NC(=O)C(C)=CC=CC(C)C(O)C(C)C(O)C1C)C4=O` (stereo not shown) has a fraction unbound of 0.0012 (rapid equilibrium dialysis; mouse plasma).
The fraction unbound of `Cc1nc2ccc(S(=O)(=O)n3nc(SCc4ccc(Cl)cc4)nc3N)cc2s1` is reported as 0.002 (equilibrium dialysis; mouse plasma; 5 µM, 6 h).
`O=C(Nc1nc(C(F)(F)F)co1)C1c2ccccc2Oc2ccccc21` gave a fraction unbound of 0.014 (equilibrium dialysis; rat plasma; 4 h, pH 7.4).
The fraction unbound of `O=C(CNC(=O)c1cccc(NC2=NCCCN2)c1)NC[C@H](NC(=O)c1c(Cl)cc(-c2ccccc2)cc1Cl)C(=O)O` is reported as 0.018 (equilibrium dialysis; mouse plasma).
The fraction unbound of `CNCc1ccc(-c2cc(=O)c3ccc4[nH]c(C(F)(F)F)nc4c3o2)cc1` is reported as 4.6% (plasma).
With `COC1C=COC2(C)Oc3c(C)c(O)c4c(c3C2=O)C2=NC3(CCN(CC(C)C)CC3)NC2=C(NC(=O)C(C)=CC=CC(C)C(O)C(C)C(O)C(C)C(OC(=O)Nc2cccnn2)C1C)C4=O` (stereo not shown) the fraction unbound was 0.0683 (rapid equilibrium dialysis; mouse plasma).
For `OCC1OC(n2cnc3c(NCc4ccc(Br)s4)ncnc32)C(O)C1O` (stereo not shown), the fraction unbound was 0.135 (equilibrium dialysis; dog plasma; 0.05 µg/mL, 4 h, pH 7.4).
The fraction unbound of `NS(=O)(=O)c1ccc(NC(=O)[C@H](CC2CCCCC2)Nc2nn3c(=O)ccnc3s2)cc1` is reported as 0.053 (rapid equilibrium dialysis; human plasma; 1 µM, 4 h).
`Nc1nc(SCc2ccc(Cl)cc2)nn1S(=O)(=O)c1ccc2c(c1)CCO2` has a fraction unbound of < 0.001 (equilibrium dialysis; human plasma; 5 µM, 6 h).
The fraction unbound of `COC1C=COC2(C)Oc3c(C)c(O)c4c(c3C2=O)C2=NC3(CCN(CC(C)C)CC3)NC2=C(NC(=O)C(C)=CC=CC(C)C(O)C(C)C(O)C(C)C(OC(=O)Nc2cscn2)C1C)C4=O` (stereo not shown) is reported as 0.0168 (rapid equilibrium dialysis; mouse plasma).
The fraction unbound of `O=C(CNC(=O)c1cccc(NC2=NCC(F)(F)CN2)c1)NC[C@H](NC(=O)c1c(Cl)cc(-c2ccccc2)cc1Cl)C(=O)O` is reported as 0.035 (equilibrium dialysis; mouse plasma).
With `COC1C=COC2(C)Oc3c(C)c(O)c4c(c3C2=O)C2=NC3(CCN(CC(C)C)CC3)NC2=C(NC(=O)C(C)=CC=CC(C)C(O)C(C)C(O)C(C)C(OC(=O)c2cccnc2)C1C)C4=O` (stereo not shown) the fraction unbound was 0.0205 (rapid equilibrium dialysis; mouse plasma).
With `[11CH3]N(Cc1ccc(/C=C/C(=O)NO)cc1)CC12CC3CC(CC(C3)C1)C2` the fraction unbound was 0.055 (human plasma; 10 min).

Repeated from above:
With `COC1C=COC2(C)Oc3c(C)c(O)c4c(c3C2=O)C2=NC3(CCN(CC(C)C)CC3)NC2=C(NC(=O)C(C)=CC=CC(C)C(O)C(C)C(O)C(C)C(OC(=O)Nc2cccnn2)C1C)C4=O` (stereo not shown) the fraction unbound was 0.0683 (rapid equilibrium dialysis; mouse plasma).
